Published values gathered from unrelated publications.
Protocols differ between the studies behind these lines.
FYN: Tyrosine-protein kinase Fyn (FYN, Homo sapiens, UniProt P06241)

Compound	target	assay	setting	scale	endpoint	result
COc1c(Cl)cccc1Nc1c(-c2ccncc2C#C[C@@]2(C)CCCN2C(=O)/C=C/CN(C)C)[nH]c2c1C(=O)NCC2	FYN	binding, competition with immobilised ligand	3 µM		remaining binding	93%
C[C@H]1CN(C(=O)c2cn(-c3ccnc(N)n3)c3cc(C#CC4(O)CCCCC4)ccc23)CCN1	FYN	enzyme activity, inhibitor, FRET	1 µM		inhibition	-1%
Nc1ncc(-c2cc(-c3cnn(CC(F)(F)F)c3)ncc2F)nc1C(=O)NC1CNCC(F)C1 (stereo not shown)	FYN	enzyme activity	1 µM	relative to: DMSO control	remaining activity	82.7%
CNC1C[S+]2CC[S+]3CC[S+](C1)[Ru-4]321([N]=C=S)[n]2c3ccc(OC)cc3c3c4c(c5cc(F)c[n+]1c5c32)C(=O)NC4=O (stereo not shown)	FYN	KinomeScan	0.1 µM	relative to: untreated	remaining binding	100%
NC(=O)C[C@H]1CCc2sc3ncnc(O[C@H]4CC[C@H](N5CCOCC5)CC4)c3c21	FYN	enzyme activity, inhibitor	10 µM		inhibition	16%
C=CC(=O)Nc1cccc(-c2cnc3[nH]cc(C(=O)NC(C)(C)C)c3n2)c1	FYN	enzyme activity, inhibitor	0.1 µM		inhibition	26%
O=c1c(-c2ccc(Cl)c(CN3CCOCC3)c2)coc2cc(O)ccc12	FYN	enzyme activity, inhibitor	1 µM		remaining activity	113%
CNC(=O)C[C@H](Cc1ccc(C#N)cc1)NC(=O)c1cc(-c2ccc(CN[C@H](C)c3ccc(C)cc3)o2)ccc1Cl	FYN	enzyme activity, inhibitor	1 µM		activity vs control	112%
COc1ccc(NC(=O)Nc2ccc3c(c2)C(=O)N(C(C)CO)CC(C)C(CN(C)Cc2ccc4c(c2)OCO4)O3)cc1 (stereo not shown)	FYN	kinase activity, KinaseProfiler	0.03 µM, species human	relative to: control	remaining activity	107%
COc1c(OCCCN2CCOCC2)ccc2c1N=C(NC(=O)c1cnc(N)nc1)N1CCN=C21	FYN	kinase activity, inhibitor	1 µM	relative to: untreated control	remaining activity	97%
CCn1cc(C(=O)O)c(=O)c2c(N)c(F)c(NC3CCCCC3)cc21	Tyrosine-protein kinase Fyn, isoform b (FYN, Homo sapiens, UniProt P06241)	kinase activity	0.1 µM, together with: ATP at Km		inhibition	1.3%
C=CC(=O)N1CCc2ccc(-n3c(=O)ccc4cnc5ccc(-c6cnn(C)c6)cc5c43)cc21	FYN	KINOMEscan	1 µM	relative to: DMSO control	remaining binding	99%
COc1cc(Nc2nccc(-c3cnn4nc(OC)ccc34)n2)cc(C(F)(F)F)c1	FYN	binding, competition with immobilised ligand	1 µM		remaining binding	99%
Cc1cccc(O[C@H]2CCC[C@@H](C(C)CNCc3ccncc3)C2)c1 (relative stereo)	FYN	enzyme activity, inhibitor	1 µM		inhibition	3%
CCN1CCN(Cc2ccc(NC(=O)c3ccc(C)c(NC(=O)c4cncc(-c5cccs5)c4)c3)cc2C(F)(F)F)CC1	FYN	binding, competition with immobilised ligand	1 µM		remaining binding	1.4%
O=C(Cc1ccc(OCc2ccccc2)cc1)NC1(C(=O)O)CCN(C(=O)c2ccc(-c3cccc(Cl)c3)cc2)CC1	FYN	enzyme activity, inhibitor	10 µM		activity vs control	141%

Repeated from above:
Compound	target	assay	setting	scale	endpoint	result
COc1cc(Nc2nccc(-c3cnn4nc(OC)ccc34)n2)cc(C(F)(F)F)c1	FYN	binding, competition with immobilised ligand	1 µM		remaining binding	99%
Cc1cccc(O[C@H]2CCC[C@@H](C(C)CNCc3ccncc3)C2)c1 (relative stereo)	FYN	enzyme activity, inhibitor	1 µM		inhibition	3%
